# Results collected from several papers.
# Lines come from different studies, so protocols differ. Several values in a cell are separate wells, animals, samples, runs or records. ± gives the spread as reported.
Structure (SMILES),organism,assay,test system,conditions,how to read,quantity,result
[O-][N+]1=C(c2ccc(Cl)cc2)C2=NCCN2c2ccccc21,Prevotella spp.,bacterial growth,,,,MIC50,≤ 0.06 µg/mL
COC1=CC(c2ccc[nH]2)=N/C1=C\c1[nH]c(C)cc1-c1ccc(OC(F)(F)F)cc1.Cl,Plasmodium yoelii,,CF1 mice,"oral, 25 mg/kg daily for 4 days, day 5",relative to: vehicle,parasitaemia reduction,100%
CS(=O)(=O)CCCn1c(Cn2c(=O)n(CC(F)(F)F)c3ccncc32)cc2cc(Cl)ccc21,respiratory syncytial virus,RT-qPCR,"hospitalized infants 1-24 months, nasal swab","oral, 2, 1.5 or 1 mg/kg daily, day 3, low dose by age cohort",relative to: placebo,LS mean difference vs placebo,-2.23 log10 copies/mL
COc1cccc(C(=O)NN(C(=O)c2cc(C)cc(C)c2)C(C)(C)C)c1C,Anopheles funestus,,"FUMOZ, resistant","tarsal contact, 367 mg/m^2, added: RME 100 mg/m^2",relative to: control,egg number,decreased
CC[C@H](C)[C@H](NC(=O)[C@H](C)NC(=O)[C@H](CCCCN)NC(=O)[C@H](CC(C)C)NC(=O)[C@H](C)NC(=O)[C@@H](NC(=O)[C@H](Cc1c[nH]cn1)NC(=O)[C@H](CC(C)C)NC(=O)[C@@H](NC(=O)[C@@H](NC(=O)[C@H](CCCCN)NC(=O)[C@H](C)NC(=O)[C@H](C)NC(=O)[C@H](CO)NC(=O)[C@H](CCCCN)NC(=O)[C@H](Cc1ccccc1)NC(=O)[C@@H](NC(=O)[C@H](CCCCN)NC(=O)[C@H](CC(C)C)NC(=O)[C@H](Cc1ccccc1)NC(=O)[C@H](CO)NC(=O)[C@H](CCCCN)NC(=O)[C@H](Cc1c[nH]c2ccccc12)NC(=O)[C@H](CCCCN)NC(C)=O)[C@@H](C)O)[C@@H](C)O)C(C)C)[C@@H](C)O)C(=O)N[C@@H](CO)C(=O)N[C@@H](CO)C(N)=O,Pseudomonas aeruginosa,,,43 strains,,MBC50,8 µg/mL
CC[C@H](C)[C@H](NC(=O)[C@H](CC(C)C)NC(=O)[C@H](CC(C)C)NC(=O)[C@H](Cc1c[nH]cn1)NC(=O)[C@H](CCCCN)NC(=O)[C@H](Cc1c[nH]cn1)NC(=O)[C@H](CCCNC(=N)N)NC(=O)[C@@H]1CCCN1C(=O)[C@H](Cc1ccc(O)cc1)NC(=O)[C@H](CC(C)C)NC(=O)[C@H](CCC(N)=O)NC(=O)[C@@H](N)CO)C(=O)N[C@@H](CCCCN)C(=O)N[C@@H](CCCNC(=N)N)C(=O)N[C@@H](CO)C(=O)N[C@@H](CC(C)C)C(=O)N[C@@H](CCCNC(=N)N)C(=O)N[C@@H](CS)C(=O)N[C@@H](CCCNC(=N)N)C(=O)N[C@@H](CCCCN)C(=O)N[C@@H](CS)C(=O)O,Staphylococcus haemolyticus,,,,,MBC,32 µg/mL
C[C@@H](O)[C@H]1C(=O)N2C(C(=O)O)=C(S[C@@H]3CN[C@H](C(=O)N(C)C)C3)[C@H](C)[C@H]12,Acinetobacter baumannii,,"ATCC 19606, rat lung infection, lung",30 mg/kg,,lung bacterial burden difference,-1.41 log10 CFU/g and -1.23 log10 CFU/g
O=C1NC(=O)C(Cc2ccc(O)cc2)S1 (centres unmarked),Tetrahymena pyriformis and Klebsiella pneumoniae,virulence in co-culture,,,,IC50,0.3 µM
CC1=C(C)/C(=C/c2cc(Cc3ccc(OC(F)(F)F)cc3)c(C)[nH]2)N=C1c1ccc[nH]1.Cl,Plasmodium yoelii,,CF1 mouse,"oral, 80 mg/kg single dose, day 5",,parasitaemia reduction,100%
CN[C@H](CC(C)C)C(=O)N[C@H]1C(=O)N[C@@H](CC(N)=O)C(=O)N[C@H]2C(=O)N[C@H]3C(=O)N[C@H](C(=O)N[C@H](C(=O)O)c4cc(O)cc(O)c4-c4cc3ccc4O)[C@H](O)c3ccc(c(Cl)c3)Oc3cc2cc(c3O[C@@H]2O[C@H](CO)[C@@H](O)[C@H](O)[C@H]2O[C@H]2C[C@](C)(N)[C@H](O)[C@H](C)O2)Oc2ccc(cc2Cl)[C@H]1O,Streptococcus pyogenes,,"erythromycin-resistant, 19 strains",,,MBC,8 µg/mL
NC[C@H]1O[C@H](O[C@H]2[C@H](O)[C@@H](O[C@H]3O[C@H](CO)[C@@H](O)[C@H](N)[C@H]3O)[C@H](N)C[C@@H]2N)[C@H](O)[C@@H](O)[C@@H]1O,Acinetobacter baumannii,colony counting,"19606, biofilm","25 µg/mL, 12 h, added: HNP1 8 µM",,survival,50.1% and 33.8% and 38.8% and 31.3% and 53.9% and 51.4%
Cn1c(=O)ccc2ccc(F)c(CCNC[C@H]3CN(c4cnc5c(n4)NC(=O)CO5)C(=O)O3)c21,Ureaplasma spp.,,,,,MIC50,< 0.015 µg/mL
CC1(C)SC2C(NC(=O)C(NC(=O)C3=C(O)C(Cc4ccc(F)cc4)NC3=O)c3ccccc3)C(=O)N2C1C(=O)O (centres unmarked),Escherichia coli,broth microdilution,"isolate IU 356 A, KPC-3, VIM-1, TEM",no clavulanic acid,,MIC,> 200 µg/mL
CCC(C)NCC(O)(c1ccc(Cl)cc1)c1ccc(Cl)cc1 (centres unmarked),Plasmodium yoelii,oxygen consumption,17XL,2 µM,,inhibition,4%
Cc1nc(O)n2ncc(Cl)c2n1,Tetrahymena pyriformis and Klebsiella pneumoniae,virulence in co-culture,,,,IC50,0.74 µM
COc1cc2oc([N+](=O)[O-])cc2c2ccccc12,Klebsiella aerogenes,REMA,,,,MIC90,> 32 µg/mL
N=C(N)c1ccc(OCc2cc(COc3ccc(C(=N)N)cc3)cc(-c3ccccc3)c2)cc1,Escherichia coli,checkerboard,mcr-1 polymyxin-resistant,"unit not given, added: rifampicin",lower = stronger synergy,FICI,0.047
COc1cc(C#CC(=O)c2ccccc2)ccc1O,Pseudomonas aeruginosa,,,"10 µM, 24 h",relative to: untreated,exoprotease production,56%
COC1=CC(c2ccc[nH]2)=N/C1=C\c1[nH]c(C)cc1-c1ccc(Cl)cc1.Cl,Plasmodium yoelii,,CF1 mice,"oral, 10 mg/kg daily for 4 days, day 5",relative to: vehicle,parasitaemia reduction,100%
Cc1cc(O)c(C)c(O)c1C(=O)O,Tetrahymena pyriformis and Klebsiella pneumoniae,virulence in co-culture,,,,IC50,13.7 µM
CC1(C)SC2C(NC(=O)C(NC(=O)C3=C(O)C(Cc4ccc([N+](=O)[O-])cc4)NC3=O)c3ccccc3)C(=O)N2C1C(=O)O (centres unmarked),Escherichia coli,broth microdilution,"ATCC 35218, low-level TEM-1",no clavulanic acid,,MIC,> 200 µg/mL
Nc1ncnc2c1ncn2[C@@H]1O[C@@H]2COP(=O)(O)O[C@H]3[C@@H](O)[C@H](n4cnc5c(=O)[nH]cnc54)O[C@@H]3COP(=O)(O)O[C@H]2[C@H]1O,West Nile virus,"RNA sequencing, item: antiviral mechanism, ISG15, R-HSA-1169408",HFF-1 cells,"concentration not given, upregulated pathway",relative to: WNV-infected untreated cells,fold enrichment,5.62
O=[N+]([O-])c1cc2c(ccc3cc(Br)ccc32)o1,Klebsiella aerogenes,REMA,,,,MIC90,> 32 µg/mL
Cc1c2c(nn1C)CSCc1cc(n(C)n1)CSc1cc(c3ccccc3c1)OCCCc1c(C(=O)O)n(C)c3c-2c(Cl)ccc13,Staphylococcus aureus,"label-free proteomics, item: hld",SA113,concentration not given,relative to: untreated,protein level fold change,0.0265
CCOC(=O)C1(Cc2ccccc2)CN(c2ccccc2)Cc2nnn(Cc3cccc(F)c3)c21 (centres unmarked),human adenovirus 2,viral replication,HEL,,,EC50,> 100 µM
O=[N+]([O-])c1cnc2ccc(F)cc2c1O,Tetrahymena pyriformis and Klebsiella pneumoniae,virulence in co-culture,,,,IC50,0.58 µM
COc1ccc2c(ccc3oc([N+](=O)[O-])cc32)c1,Klebsiella aerogenes,REMA,,,,MIC90,> 32 µg/mL
CNCCCN(C)C(=O)Oc1c(Br)c(C)nc(C)c1-c1ccc(Oc2ccc(OC(F)(F)F)cc2)cc1,Plasmodium yoelii,,17XL,384-well,,IC50,2.66 ± 0.457 µM
O=[N+]([O-])c1cc2cc3ccc4oc([N+](=O)[O-])cc4c3cc2o1,Mycolicibacterium aurum,REMA,ATCC 23366,,,MIC90,0.125 µg/mL
COC1=CC(c2ccc[nH]2)=N/C1=C\c1[nH]c(C)cc1-c1ccccc1.Cl,Plasmodium yoelii,,CF1 mice,"oral, 10 mg/kg daily for 4 days, day 5",relative to: vehicle,parasitaemia reduction,6.73%
Nc1ccc(S(=O)(=O)NC(=O)/C=C\c2ccccc2Cl)cc1,Tetrahymena pyriformis and Klebsiella pneumoniae,virulence in co-culture,,,,IC50,12.9 µM
FC(F)(F)c1cccc(Nc2nc3ccccc3nc2Nc2cccc(C(F)(F)F)c2)c1,Plasmodium yoelii,oxygen consumption,17XL,2 µM,,inhibition,17%
COc1ccc(CCn2nnc3c2CCN(c2ccc(C(F)(F)F)cc2)C3)cc1,human adenovirus 2,viral replication,HEL,,,EC50,> 100 µM
Cc1cc(-c2cn[nH]c2-c2cccc(OCc3cccc(C#N)c3)c2)cc(C)n1,aerobic Gram-positive pathogens,,,concentration not given,,antibacterial activity,inactive
CNC(C)C1CCC(N)C(OC2C(N)CC(N)C(OC3OCC(C)(O)C(NC)C3O)C2O)O1 (centres unmarked),Acinetobacter baumannii,,"19606, biofilm","50 µg/mL, added: HNP1 8 µM",,survival,11% and 16.1% and 8.5% and 12.7% and 10.2%
CCOC(=O)COc1ccc2ccc3oc([N+](=O)[O-])cc3c2c1,Klebsiella aerogenes,REMA,,,,MIC90,> 32 µg/mL
O=C(C[n+]1cc(-c2ccc(Cl)cc2)n2c1CCC2)Nc1ccc(Cl)c(Cl)c1,Tetrahymena pyriformis and Klebsiella pneumoniae,virulence in co-culture,,,,IC50,10 µM
COC(=O)N[C@H](C(=O)N1CCC[C@H]1c1ncc(-c2ccc(-c3ccc(-c4cnc([C@@H]5CCCN5C(=O)[C@@H](NC(=O)OC)C(C)C)[nH]4)cc3)cc2)[nH]1)C(C)C,Hepatitis C virus,,replicon cells,"50% effect level, added: NS5B palm site II inhibitor, ratio 2.5:1",,combination index,0.66
